Measurements collected from several papers.
Values joined by “and” are separate records of one study, mostly repeats; a detail may differ. ± marks the error that the study gave.
TMEM97: Sigma intracellular receptor 2 (TMEM97, Homo sapiens, UniProt Q5BJF2)
Oprk1: Kappa-type opioid receptor (Oprk1, Mus musculus, UniProt P33534)
FURIN: Furin (FURIN, Homo sapiens, UniProt P09958)
Fructose-1,6-bisphosphate aldolase/phosphatase: Fructose-1,6-bisphosphate aldolase/phosphatase (Helicobacter pylori, UniProt Q9ZMG8)

COC[C@H]1O[C@@H](O[C@@H]2OC[C@@H]3O[C@@]4(OC[C@@H](OC(=O)c5c(C)cc(O)cc5O)[C@@H]5OCO[C@H]54)O[C@H]3[C@H]2O)[C@@H](OC)[C@@H](O)[C@@H]1O[C@@H]1O[C@H](C)[C@H](OC)[C@H](O[C@@H]2O[C@H](C)[C@H]3O[C@]4(C[C@@H](O)[C@H](O[C@H]5C[C@@H](O[C@H]6C[C@](C)([N+](=O)[O-])[C@@H](OC)[C@H](C)O6)[C@H](OC(=O)c6c(C)c(Cl)c(O)c(Cl)c6OC)[C@@H](C)O5)[C@@H](C)O4)O[C@]3(C)[C@@H]2O)[C@H]1O  Ki (Escherichia coli ribosome POST complex; EF4-mediated back-translocation, stopped-flow proflavin fluorescence; added: EF4 3 µM, GDPNP 0.5 mM): 600 ± 100 nM
COC(=O)c1ccc(C2c3c(-c4ccccc4O)n[nH]c3C(=O)N2Cc2ccncc2)cc1 (centres unmarked)  Ki (HTR1A (Homo sapiens, UniProt P08908); ligand displacement, radioligand; cell membranes): 17800 nM
O=C(OCCN1CCOCC1)C1(c2ccccc2)CCCCC1  Ki (TMEM97; ligand displacement, radioligand): 13100 nM
CN(C(=O)/C=C/c1ccoc1)[C@H]1CC[C@@]2(O)[C@H]3Cc4cccc5c4[C@@]2(CCN3CC2CC2)[C@H]1O5  Ki (Oprk1; ligand displacement, radioligand): 0.46 nM
O=S(=O)(NCB(O)O)c1ccc(-c2nn[nH]n2)cc1C(F)(F)F  Ki (ADC-7 beta-lactamase, Acinetobacter baumannii; inhibitor; 5 min preincubation, pH 7.4, added: nitrocefin 60 µM): 0.45 nM
O=[N+]([O-])c1ccc(/C=C/c2ccc([N+](=O)[O-])cc2S(=O)(=O)O)c(S(=O)(=O)O)c1  Ki (folA (Escherichia coli, UniProt P0ABQ4); inhibitor; from IC50, non-competitive): 45300 nM
CCCCCCCC(=O)O[C@H]1/C(=C/C(=O)OC)C[C@H]2C[C@H]([C@@H](C)O)OC(=O)CCCC(=O)OCC(C)(C)[C@]1(O)O2  Ki (PRKCE (Homo sapiens, UniProt Q02156); ligand displacement, radioligand): 498 nM
CC(C)(C)[C@H](NC(=O)[C@H](CCCNC(=N)N)NC(=O)[C@H](N)CCCNC(=N)N)C(=O)N[C@@H](CCCNC(=N)N)C(=O)NCc1ccc(C(=N)N)cc1  Ki (FURIN; enzyme activity, inhibitor, fluorescence): 0.0378 nM
CCCC(C(=O)O)[C@@H]1CCN[C@H]1C(=O)O (relative stereo)  Ki (NMDA receptor, rat; binding; cortical synaptosomes; added: [3H]-CGP 39653): > 100000 nM
CC(C)CN(C[C@@H](O)[C@H](Cc1ccccc1)NC(=O)O[C@H]1CO[C@H]2OCC[C@H]21)S(=O)(=O)c1ccc(-c2nc(CO)co2)cc1  Ki (Gag-Pol polyprotein, protease (gag-pol, Human immunodeficiency virus type 1 group M subtype B, UniProt P04585); enzyme activity, inhibitor): 0.0497 nM
CSC[C@H]1O[C@@H](n2cnc3c2N=CNC[C@H]3O)C[C@@H]1O  Ki (Fructose-1,6-bisphosphate aldolase/phosphatase; inhibitor; pH 7.0, 25 °C, 77 nM enzyme, added: MTA 400 µM): > 10000 nM
COc1ccc(C(=O)O[C@H]2[C@H](O[C@@H]3[C@@H](OC(C)=O)[C@H](O[C@H]4C[C@H]5[C@@H]6CC=C7C[C@@H](O)CC[C@]7(C)[C@H]6CC[C@]5(C)[C@@]4(O)[C@H](C)C(=O)CCC(C)C)OC[C@@H]3O)OC[C@@H](O)[C@@H]2O)cc1  Ki (OSBP2 (Homo sapiens, UniProt Q969R2); [3H]25-hydroxycholesterol binding, inhibitor, competitive radioligand binding; HEK293T cell lysate; added: 20 nM [3H]25-hydroxycholesterol): 71 ± 6 nM
O=C(Nc1ccc(Cl)c(Cl)c1)Nc1ccc(Cl)cc1O  Ki (Estrogen sulfotransferase (Ovis aries, UniProt A0ACI6NYW9); enzyme activity, inhibitor, radiochemical; sheep placental cytosol; added: estradiol 1 nM): 60 ± 20 nM
Oc1ccc(Nc2nc(-c3ccc(Cl)cc3)cs2)cc1  Ki (SPHK2 (Homo sapiens, UniProt Q9NRA0); enzyme activity, inhibitor, TLC): 40000 nM
CSC[C@H]1O[C@@H](n2cnc3c2N=CNC[C@H]3O)[C@H](O)[C@@H]1O  Ki (Fructose-1,6-bisphosphate aldolase/phosphatase; inhibitor; pH 7.0, 25 °C, 77 nM enzyme, added: MTA 400 µM): 560 ± 170 nM
NC(CO)(CCc1ccc(Sc2cccc(O)c2)cc1Cl)COP(=O)(O)O (single isomer, unassigned; (+))  Ki (S1PR3 (Homo sapiens, UniProt Q99500); reporter gene, antagonist, NFAT β-lactamase reporter; CHO; added: CYM-5541): 0.25 nM
NC(=O)[C@H](CCC(=O)O)NC(=O)[C@H](CCC(=O)O)NC(=O)[C@H](Cc1cc(-c2ccc(-c3cccc(Cl)c3)cc2)no1)CP(=O)(O)c1ccc(Br)cc1  Ki (MMP12 (Homo sapiens, UniProt P39900); inhibitor; added: human serum albumin 5 µM): 2.2 ± 0.15 nM
CC[C@H](C)CCCCC(=O)N[C@@H](CCN)C(=O)N[C@H](C(=O)N[C@@H](CCN)C(=O)N[C@H]1CCNC(=O)[C@H]([C@@H](C)O)NC(=O)[C@H](CCN)NC(=O)[C@H](CCN)NC(=O)[C@H](CC(C)C)NC(=O)[C@@H](CC(C)C)NC(=O)[C@H](CCN)NC1=O)[C@@H](C)O  Ki (Klebsiella pneumoniae ATCC 13883 lipopolysaccharide; displacement): 600 ± 100 nM
c1ccc(CCN2CCCCC2)cc1  Ki (adenosine receptor, bovine; binding; bovine striatum; added: [3H]NECA 4.0 nM): > 10000 nM
C=C[C@H]1C[N@@]2CC[C@H]1C[C@@H]2[C@@H](O)c1ccnc2ccccc12  Ki (SLC6A4 (Homo sapiens, UniProt P31645, I172M); transporter uptake, inhibitor, radiometric): 310 nM
CC(C)C[C@H](N)C(=O)O  Ki (2-isopropylmalate synthase (leuA, Neisseria meningitidis serogroup B, UniProt Q9JZG1); enzyme activity, noncompetitive inhibitor, DTP-coupled; pH 7.5, 25 °C, wild-type enzyme, added: α-ketoisovalerate varied, acetyl-CoA 300 µM): 48000 ± 3000 nM
CN(Cc1cnc2nc(N)nc(N)c2n1)c1ccc(C(=O)N[C@@H](CCC(=O)O)C(=O)O)cc1  Ki (Dihydrofolate reductase (Staphylococcus aureus, UniProt C7C2U7); inhibitor): 2.47 ± 0.01 nM
O=C(/C=C/c1ccoc1)N[C@@H]1CC[C@@]2(O)[C@H]3Cc4ccc(O)c5c4[C@@]2(CCN3CC2CC2)[C@H]1O5  Ki (Oprk1; ligand displacement, radioligand): 0.18 nM
O=C(NC1CCNCC1)[C@@H]1CC[C@@H]2CN1C(=O)N2OS(=O)(=O)O  Ki (ampC (Burkholderia multivorans, UniProt A0A0H3KN52); enzyme activity, inhibitor): 9000 ± 1000 nM
CC(C)[C@H](NC(=O)[C@H](CCCNC(=N)N)NC(=O)[C@@H](CCCNC(=N)N)NC(=O)[C@@H](CCCNC(=N)N)NC(=O)[C@@H](CCCNC(=N)N)NC(=O)[C@H](N)CCCNC(=N)N)C(=O)N[C@@H](CCCNC(=N)N)C(=O)NCc1ccc(C(=N)N)cc1  Ki (FURIN; enzyme activity, inhibitor, fluorescence): 0.0943 nM
CCCSC[C@H]1O[C@@H](n2cnc3c2N=CNC[C@H]3O)C[C@@H]1O  Ki (Fructose-1,6-bisphosphate aldolase/phosphatase; inhibitor; pH 7.0, 25 °C, 77 nM enzyme, added: MTA 400 µM): 420 ± 140 nM
CCOC(=O)[C@@](C)(O)[C@@H]1C[C@@H](CO[Si](c2ccccc2)(c2ccccc2)C(C)(C)C)O[C@H]1n1cc(F)c(=O)[nH]c1=O  Ki (Genome polyprotein, NS5 methyltransferase domain (GP1, West Nile virus, UniProt Q9Q6P4); N7 methyltransferase activity, inhibitor, TLC, Cheng-Prusoff; added: SAM 80 µM, GpppA-RNA 0.36 µM): 123000 nM
O=C(O)c1ccc2cccnc2n1  Ki (Thioredoxin glutathione reductase (Schistosoma mansoni, UniProt Q962Y6); enzyme activity, inhibitor; NADPH-free enzyme, added: varied NADPH, 3 mM DTNB): 570000 nM
O=C(O)c1[nH]c(=O)[nH]c(=O)c1F  Ki (uracil transporter; uracil uptake, inhibitor; Trypanosoma brucei brucei, bloodstream form; 30 s, added: 0.15 µM [3H]-uracil): 290000 ± 40000 nM
CO[C@H]1CC=C2CCN3CCC4=C(CC(=O)OC4)[C@]23C1  Ki (Neuronal acetylcholine receptor; alpha4/beta2 (Rattus norvegicus, UniProt P09483+P12390); ligand displacement, radioligand; cell membranes): 61.3 nM
CCCCN1C(=O)C(C=CC=CC=C2C(=O)N(c3ccc(S(=O)(=O)O)cc3)N=C2C)C(=O)N(CCCC)C1=O  Ki (SLC4A1 (Homo sapiens, UniProt P02730); 36Cl exchange flux, inhibitor, Dixon plot; human erythrocytes; 0 °C, outward-facing form, initial binding): 113 nM and 110 nM
[O]=[V]([OH])([OH])[OH]  Ki (Ubiquitin-associated and SH3 domain-containing protein B, phosphatase domain (UBASH3B, Homo sapiens, UniProt Q8TF42); phosphatase activity, competitive inhibitor; added: pNPP): 4610 ± 620 nM
O=C(OP(=O)(O)OC(=O)c1cc2ccccc2s1)c1cc2ccccc2s1  Ki (Beta-lactamase TEM (bla, Escherichia coli, UniProt P62593, Q37K); enzyme activity, inhibitor): 1470 ± 60 nM
O=P(O)(O)Oc1ccccc1OP(=O)(O)O  Ki (Signal transducer and activator of transcription 5B, SH2 (STAT5B, Homo sapiens, UniProt P51692); ligand displacement, FP): 930 nM
CCCN(CCC)CCc1ccc(OC)c(OCCc2ccccc2)c1  Ki (TMEM97; ligand displacement, radioligand): 41.4 nM
CCC[C@@]1(CCc2ccccc2)CC(O)=C([C@H](CC)c2cccc(NS(=O)(=O)c3ccc(C(F)(F)F)cn3)c2)C(=O)O1  Ki (Gag-Pol polyprotein, protease (Human immunodeficiency virus type 1 group M subtype B, UniProt P03367, C567A/C595A/L533I/L563I/L576V/Q507K); protease activity, inhibitor): 7.6 ± 0.3 nM
CC(C)[C@H](NC(=O)[C@H](CCCNC(=N)N)NC(=O)[C@H](N)CCCNC(=N)N)C(=O)N[C@@H](CCCNC(=N)N)C(=O)NCc1ccc(C(=N)N)cc1  Ki (FURIN; enzyme activity, inhibitor, fluorescence): 0.108 nM
O=C(NCCCc1c[nH]cn1)NC(=O)c1ccccc1  Ki (HRH1 (Homo sapiens, UniProt P35367); ligand displacement, radioligand; cell membranes): > 100000 nM

Excerpt of the above:
C=C[C@H]1C[N@@]2CC[C@H]1C[C@@H]2[C@@H](O)c1ccnc2ccccc12  Ki (SLC6A4 (Homo sapiens, UniProt P31645, I172M); transporter uptake, inhibitor, radiometric): 310 nM
O=C(O)c1[nH]c(=O)[nH]c(=O)c1F  Ki (uracil transporter; uracil uptake, inhibitor; Trypanosoma brucei brucei, bloodstream form; 30 s, added: 0.15 µM [3H]-uracil): 290000 ± 40000 nM
CCCCN1C(=O)C(C=CC=CC=C2C(=O)N(c3ccc(S(=O)(=O)O)cc3)N=C2C)C(=O)N(CCCC)C1=O  Ki (SLC4A1 (Homo sapiens, UniProt P02730); 36Cl exchange flux, inhibitor, Dixon plot; human erythrocytes; 0 °C, outward-facing form, initial binding): 113 nM and 110 nM
